Published values of several laboratories.
Compare with care: the assays were run in different laboratories. Numbers after ± are the reported error.

| Compound | assay | system | setting | quantity | value |
| --- | --- | --- | --- | --- | --- |
| CC(C)[C@H](NC(=O)[C@@H](NC(=O)[C@H](CCCNC(=N)N)NC(=O)[C@H](CCCNC(=N)N)NC(=O)[C@H](CCCNC(=N)N)NC(=O)[C@H](CCC(N)=O)NC(=O)[C@H](CCCNC(=N)N)NC(=O)[C@H](CCCNC(=N)N)NC(=O)[C@H](CCCCN)NC(=O)[C@H](CCCCN)NC(=O)[C@H](CCCNC(=N)N)NC(=O)CN)[C@@H](C)O)C(=O)N[C@H](C(=O)N[C@@H](CO)C(=O)N1CCC[C@H]1C(=O)O)[C@@H](C)O | – | ICR mice, female, lung | intranasal, 5 mg/kg daily, 4 weeks | organ weight | 0.361 ± 0.103 g |
| Cc1ccccc1-c1ccc(-c2nc(-c3ccc(CN(C)CCCC(=O)O)c([18F])c3)no2)cc1C(F)(F)F | – | rat, lung | 1 h | tracer uptake | 0.38 %ID/g |
| CCCC[C@H]1C(=O)N(C)[C@@H](CCCC)C(=O)N[C@@H](CCCNC(=O)CN2CCN(CC(=O)O)CCN(CC(=O)O)CCN(CC(=O)O)CC2)C(=O)N[C@H](C(=O)NCC(N)=O)CSCC(=O)N[C@@H](Cc2ccc(O)cc2)C(=O)N(C)[C@@H](C)C(=O)N[C@@H](CC(N)=O)C(=O)N2CCC[C@H]2C(=O)N[C@@H](Cc2c[nH]cn2)C(=O)N[C@@H](CC(C)C)C(=O)N(C)CC(=O)N[C@@H](Cc2c[nH]c3ccccc23)C(=O)N[C@@H](CO)C(=O)N[C@@H](Cc2c[nH]c3ccccc23)C(=O)N1C [gallium-68 labelled] | – | NOD/SCID mice with CHO-hPD-L1 xenograft, intestine | 60 min post injection | tissue uptake | 5.64 ± 0.64 %ID/g |
| N#[11C]c1ccc(-c2csc(NN=C3CCCC3)n2)cc1 | – | C57BL/6 mice, male, kidney | intravenous, 3 MBq, 30 min | radioactivity uptake | 5.89 ± 0.34 %ID/g |
| CC(C)[C@@H]1NC(=O)CNC(=O)[C@H](CC(N)=O)NC(=O)[C@H](CCCNC(=N)N)NC(=O)[C@H](Cc2ccc(O)cc2)NC(=O)[C@H](C(C)C)NC(=O)[C@@H](NC(=O)[C@@H](NC(=O)[C@H](CC(N)=O)NC(=O)[C@H](Cc2c[nH]c3ccccc23)NC(=O)[C@H](C)NC(=O)[C@H](Cc2ccccc2)NC(=O)CNC(=O)[C@H](CCCCN)NC(=O)[C@H](Cc2ccccc2)NC(=O)[C@H](Cc2ccccc2)NC(=O)[C@H](CCCCN)NC(=O)OCC2c3ccccc3-c3ccccc32)C(C)C)CSSC[C@@H](C(=O)N[C@@H](Cc2c[nH]cn2)C(=O)N[C@@H](CCCNC(=N)N)C(=O)N[C@@H](CCCNC(=N)N)C(=O)N[C@@H](C)C(=O)N[C@@H](CC(N)=O)C(N)=O)NC(=O)[C@H](C(C)C)NC(=O)[C@H](CCCNC(=N)N)NC1=O | – | ICR mouse, blood | intramammary, 10 mg/kg, day 5, 3 d dosing | ALT | 45.9 ± 1.74 IU/L |
| C=CC(=O)Nc1cccc(Cn2ncc3cnc(Nc4cnn(CCOC)c4)nc32)c1 | – | Sprague-Dawley rat male, blood | oral, 180 mg/kg, day 28, 28-day subacute toxicity | haemoglobin | 143 ± 13.1 g/L |
| CN1Cc2cc(Cl)ccc2-n2c(nnc2C2CCN(c3cccc([18F])n3)CC2)C1 | – | C57BL/6 mouse male, lung | intravenous, 3.7 MBq, 15 min | tissue uptake | 5.24 ± 0.88 %ID/g |
| C#Cc1c(F)ccc2cc(O)cc(-c3ncc4c(N5CC6CCC(C5)N6C(=O)OC(C)OC(=O)c5ccccc5)nc(OC[C@@]56CCCN5C[C@H](F)C6)nc4c3F)c12 (stereo partly drawn) | chemical stability | simulated intestinal fluid | 1 µM, 30 min | compound remaining | 98.9% |
| CSCC[C@@H]1NC(=O)[C@H](C(C)C)NC(=O)[C@H](CCCNC(=N)N)NC(=O)CNC(=O)[C@@H]2CCCN2C(=O)[C@@H](NC(=O)CNC(=O)[C@H](CO)NC(=O)CNC(=O)[C@H](CO)NC(=S)Nc2ccc(C[C@H]3CN(CC(=O)O)CCN(CC(=O)O)CCN3CC(=O)O)cc2)CSSC[C@@H](C(N)=O)NC(=O)[C@@H]2CCCN2C(=O)CNC(=O)[C@H](CCC(=O)O)NC(=O)[C@H](CC(=O)O)NC(=O)[C@H](CC(=O)O)NC(=O)CNC(=O)[C@H](CC(C)C)NC(=O)[C@H](Cc2c[nH]cn2)NC(=O)[C@H](CC(C)C)NC(=O)CNC(=O)[C@H](Cc2c[nH]cn2)NC1=O [copper-64 labelled] | dynamic PET | CD rat, myocardial infarction model, fibrotic infarct myocardium | intravenous, 18.5 MBq, 0 to 5 min | half-life | 2.6 ± 0.2 min |
| O=C1NC2(CC2)COc2ncc(F)cc2[C@H]2COCCN2c2ccn3ncc1c3n2 | – | Sprague-Dawley rat, female, serum | oral, 20 mg/kg/day, end of treatment, 4-week subacute toxicity | serum sodium | 146 ± 2 mmol/L |
| CC(=O)NCCCC[C@@H]1NC(=O)[C@H](Cc2c[nH]c3c(C)cccc23)NC(=O)[C@H]([C@@H](C)O)NC(=O)[C@H](CC(N)=O)NC(=O)[C@@H](NC(C)=O)C(C)(C)SSC(C)(C)[C@@H](C(=O)N[C@@H](Cc2ccc(OCCN)cc2)C(=O)N[C@@H](Cc2ccc3ccccc3c2)C(=O)NC2(C(=O)N[C@@H](CCC(=O)O)C(=O)N[C@@H](CC(N)=O)C(=O)N[C@@H](Cc3cccnc3)C(=O)N(C)CC(N)=O)CCOCC2)NC1=O | equilibrium dialysis | rat, plasma | 1 µM | plasma protein binding | 51.2 ± 1.8% |
| Cc1cnc(-c2ncn3c(=O)n(C)nnc23)o1 | – | mice | intravenous, 125 mg/kg single dose, 7 days | body weight | 31.6 ± 0.3 g |
